Experimental data from different studies.
A part holds a random share of what one study measured. Substitutions count along the parent as printed.

Sample 1 — technique: RNA Bind-n-Seq; form: RNA; sample: in vitro; concentration: 20 nM; setting: 6-mer, flanks averaged, single round; together with: 150 mM KCl; baseline: input library; reading: higher = stronger binding; measurement: 6-mer enrichment (R)
Target: TAR DNA-binding protein 43, full length, His tag (TARDBP, Homo sapiens, UniProt Q13148, residues 1-414)
Oligonucleotide = AAGACU; value = 0.613
Oligonucleotide = UUCAUC; value = 0.518
Oligonucleotide = GCUCAA; value = 0.673
Oligonucleotide = GACAGU; value = 0.892
Oligonucleotide = GACGUC; value = 0.821
Oligonucleotide = ACUUAU; value = 0.591
Oligonucleotide = CGGCGU; value = 1.33
Oligonucleotide = AUCCUC; value = 0.545
Oligonucleotide = UAGCCU; value = 0.631
Oligonucleotide = CUCCGC; value = 0.62
Oligonucleotide = AACGUC; value = 0.582
Oligonucleotide = CUCAAU; value = 0.581
Oligonucleotide = AGGCGU; value = 1.36
Oligonucleotide = GGUGGG; value = 9.02
Oligonucleotide = CUCGUA; value = 0.575
Oligonucleotide = AUGAAA; value = 0.735
Oligonucleotide = UUUGCG; value = 0.872
Oligonucleotide = UUUUGA; value = 0.684
Oligonucleotide = UGGGGU; value = 3.47
Oligonucleotide = UCGUGU; value = 0.785
Oligonucleotide = CGAACC; value = 0.64

Sample 2 — target: CCNB2, cyclin fold, Cln2 fusion (human); technique: yeast growth competition, sequencing; sample: yeast; setting: weak parent motif; baseline: not given; reading: higher = stronger binding; measurement: normalised enrichment score
Starting sequence: ORC1 docking peptide (human); PRARKRLELGNLG
Variant = PRARKRLFLGNLG [E8F]; value = 0.501
Variant = PRARKRLHLGNLG [E8H]; value = 0.148
Variant = PRARKYLELGNLG [R6Y]; value = 0.745
Variant = PRADKRLELGNLG [R4D]; value = 0.0258
Variant = PRARKRLELGWLG [N11W]; value = 0.327
Variant = PRARKVLELGNLG [R6V]; value = 0.12
Variant = PRARKRAELGNLG [L7A]; value = 0.366
Variant = PRLRKRLELGNLG [A3L]; value = 0.12
Variant = PRARKRLELGYLG [N11Y]; value = 1.17
Variant = PRARKRLEQGNLG [L9Q]; value = 0.732
Variant = PRARKRLELGNDG [L12D]; value = 0.252
Variant = PRARTRLELGNLG [K5T]; value = 0.215
Variant = PRARKRLMLGNLG [E8M]; value = 0.583
Variant = PRANKRLELGNLG [R4N]; value = 0.406
Variant = PRARKRLELSNLG [G10S]; value = 0.301
Variant = WRARKRLELGNLG [P1W]; value = 0.666
Variant = PFARKRLELGNLG [R2F]; value = -0.178
Variant = PRARKRLELYNLG [G10Y]; value = 1.68
Variant = PRARKRSELGNLG [L7S]; value = 0.804
Variant = PRFRKRLELGNLG [A3F]; value = 0.646
Variant = PRARKRLELGNGG [L12G]; value = 0.21
Variant = RRARKRLELGNLG [P1R]; value = 0.763
Variant = PRARRRLEFGNLG [K5R L9F]; value = 0.554
Variant = PRARFRLELGNLG [K5F]; value = 0.148
Variant = TRARKRLELGNLG [P1T]; value = 0.0661

Sample 3 — technique: protein-binding microarray; form: double-stranded DNA, one strand shown; sample: in vitro; concentration: 2200 nM top; setting: 60-bp whole probe; together with: salmon DNA 0.4 mg/ml; baseline: random background probes; reading: higher = stronger binding; measurement: fitted relative affinity; shared flanks, not repeated: GCCTAGCAC … GTCTTGATTCGCTTGACGCTGCTG
Target: Interferon regulatory factor 7, full length, phosphomimetic (IRF7, Homo sapiens, UniProt Q92985, residues 1-503, S471D/S472D/S475D/S476D/S477D/S483D/S484D/S487D)
Chain of UniProt Q92985 (whole entry, unmodified, looked up): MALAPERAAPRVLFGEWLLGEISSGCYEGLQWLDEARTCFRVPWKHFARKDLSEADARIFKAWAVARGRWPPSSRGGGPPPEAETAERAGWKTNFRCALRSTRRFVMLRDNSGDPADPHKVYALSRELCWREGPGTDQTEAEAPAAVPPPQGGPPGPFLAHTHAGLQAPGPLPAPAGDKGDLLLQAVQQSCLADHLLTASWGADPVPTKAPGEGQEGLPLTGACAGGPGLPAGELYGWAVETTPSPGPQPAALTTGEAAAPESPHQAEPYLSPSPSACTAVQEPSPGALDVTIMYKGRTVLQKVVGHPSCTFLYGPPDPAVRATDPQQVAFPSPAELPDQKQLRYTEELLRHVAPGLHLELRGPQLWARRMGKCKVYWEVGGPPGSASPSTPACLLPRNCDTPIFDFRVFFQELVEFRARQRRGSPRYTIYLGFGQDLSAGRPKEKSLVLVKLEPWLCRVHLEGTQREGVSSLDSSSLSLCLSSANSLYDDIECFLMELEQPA
Oligonucleotide = GACGGTATCCTTCTCGTGACGTGCTAG; value = 0.877 z-score
Oligonucleotide = GACGGGATCGGTATCGGGACGTGCTAG; value = -0.499 z-score
Oligonucleotide = TTAGGTTTCGGGACTGGGGTAGTGCTA; value = 3.22 z-score
Oligonucleotide = TTAGGTCTCGTACTGCTTTAGTGCTAG; value = 0.406 z-score
Oligonucleotide = TCCTCTCTCTATTCAGAGGAGTGCTAG; value = 1.63 z-score
Oligonucleotide = TCAGCATACCATATCAGACTGTGCTAG; value = 0.568 z-score
Oligonucleotide = GACGGTTCCATTTTCCTGACGTGCTAG; value = 2.49 z-score
Oligonucleotide = CTGCATTTTTTTTTTCTACTGTGCTAG; value = 1.56 z-score
Oligonucleotide = GACGATCTCAGTCTCGATACGTGCTAG; value = 0.508 z-score
Oligonucleotide = AAAACACTAATTTTCATTTTGTGCTAG; value = 3.13 z-score
Oligonucleotide = GACGGTCTCGGTATCGGGCCGTGCTAG; value = -0.249 z-score
Oligonucleotide = TTAGGTCTCGGTACCGGTTAGTGCTAG; value = 0.122 z-score
Oligonucleotide = GTAGATATCAGTATCGATTAGTGCTAG; value = 0.306 z-score
Oligonucleotide = GACGCTCTCGGACTGGGGACGTGCTAG; value = -0.176 z-score
Oligonucleotide = GACGATATCAGACTGGTGACGTGCTAG; value = 0.224 z-score
Oligonucleotide = TTAGTACTGGACTATCGGTTAGTGCTA; value = 0.225 z-score
Oligonucleotide = GACGGTTTCGGGTTTCAGGACGTGCTA; value = 8.55 z-score
Oligonucleotide = TTTTTTTTTTTTTTACTTCGGTGCTAG; value = 2.17 z-score
Oligonucleotide = TTAGATTCCAGTTTCCATTAGTGCTAG; value = 3.37 z-score
Oligonucleotide = TTAGTACTGGACACTGGGTTAGTGCTA; value = -0.0177 z-score
Oligonucleotide = TTAGGACTGAGTTTCGGTTAGTGCTAG; value = 4.92 z-score
Oligonucleotide = TCATGTTGCAGACTCGAACTGTGCTAG; value = 1.02 z-score
Oligonucleotide = GACGATTTGAGTTTCGAGACGTGCTAG; value = 2.31 z-score
Oligonucleotide = TGGTTTTTACTTTCTGAATGGTGCTAG; value = 4.64 z-score

Sample 4 — technique: DHFR PCA, deep sequencing; sample: yeast; together with: (+)-ABA 0 µM; baseline: wild-type fitted maximum; reading: higher = stronger binding; measurement: relative binding score
Target: ABI1, truncated, D143A, DHFR fusion (Arabidopsis thaliana)
Setting: methotrexate growth selection, single substitutions
Starting sequence: PYL1, truncated, DHFR fusion (Arabidopsis thaliana); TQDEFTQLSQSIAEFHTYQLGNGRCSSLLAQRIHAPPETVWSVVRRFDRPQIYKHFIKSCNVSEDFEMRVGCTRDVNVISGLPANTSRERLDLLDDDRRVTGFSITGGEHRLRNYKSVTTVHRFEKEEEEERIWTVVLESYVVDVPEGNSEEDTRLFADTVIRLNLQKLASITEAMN
Variant = D159N; value = 3.56%
Variant = D97F; value = -3.15%
Variant = R99I; value = -2.24%
Variant = V100N; value = 0.434%
Variant = S27Y; value = 5.11%
Variant = A158H; value = 20.9%
Variant = V43S; value = -1.51%
Variant = S26Y; value = 4.76%
Variant = T6N; value = 32.9%
Variant = L138H; value = -4.13%
Variant = T154V; value = 34.8%
Variant = T86W; value = 62.7%
Variant = D159Y; value = 1.32%
Variant = L94H; value = 5.56%
Variant = E64S; value = 28.2%
Variant = V161I; value = 57.4%

Sample 5 — technique: competition protein-binding microarray; form: double-stranded DNA, one strand shown; sample: in vitro; concentration: 2 µM; together with: Cbf1 competitor, 0.05 µM; reading: higher = stronger binding; measurement: fluorescence intensity; shared flanks, not repeated: … GTCTTGATTCGCTTGACGCTGCTG
Target: Phosphate system positive regulatory protein PHO4, full length, GST-tagged (PHO4, Saccharomyces cerevisiae, UniProt P07270, residues 1-312)
Setting: whole 60-bp probe, lowest competitor level
Construct (chain): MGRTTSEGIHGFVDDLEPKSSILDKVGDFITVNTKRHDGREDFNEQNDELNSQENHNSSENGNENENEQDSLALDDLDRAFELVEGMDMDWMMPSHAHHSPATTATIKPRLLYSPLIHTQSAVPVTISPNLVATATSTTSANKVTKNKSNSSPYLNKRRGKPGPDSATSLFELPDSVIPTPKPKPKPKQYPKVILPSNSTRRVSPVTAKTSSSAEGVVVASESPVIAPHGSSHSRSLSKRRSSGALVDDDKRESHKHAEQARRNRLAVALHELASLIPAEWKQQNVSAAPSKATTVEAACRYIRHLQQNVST
Oligonucleotide = AAAGCGGTAATTTGTCTTGTGGGTGCAGATATCTAT; value = 4720 a.u.
Oligonucleotide = GACACATTTGCCAAACACATGACAGAAGTGGCAATG; value = 8630 a.u.
Oligonucleotide = TTTATTTATTGAATTCACGTGTTGATGTTTTTTTCA; value = 14900 a.u.
Oligonucleotide = ATCATTTTTTACCATCACGCTTAACCTCGATATCTC; value = 6260 a.u.
Oligonucleotide = AAAGCGGTAATTTTTCACGTGCATTCACATATCTAT; value = 13900 a.u.
Oligonucleotide = GGCAACCAAGTAAACTGCGTGGGTATCTTCAAGTCG; value = 7650 a.u.
Oligonucleotide = GGTTTCTGAGGCTCGCACAGGAGGCACCCCAGTTCT; value = 4700 a.u.
Oligonucleotide = AAATTACTAAGTTGAGCTGTGGGTGACGCCGTATGA; value = 3990 a.u.
Oligonucleotide = AAATCTGTCAGCTTGCACACGCCTTCCGGGGATAGC; value = 7710 a.u.
Oligonucleotide = TGTAGAAGCAAAAAGCACGTCGCCTTGGCTGATGAG; value = 7020 a.u.
Oligonucleotide = TTAATTAGCTTCTTGCATGTGCTCTTTAGCTTCGGC; value = 9930 a.u.
Oligonucleotide = TAGCAACGGAGAAAGCACGCTTGTAGAACCAACCTT; value = 7610 a.u.
Oligonucleotide = TGCGCAACAACTTGAGCAGTGGGTGTATGTCTAGAA; value = 4830 a.u.
Oligonucleotide = CTTTCCCGATCTTGTCACGGGACTTTAGCACATTTG; value = 6530 a.u.
Oligonucleotide = TGCGCAACAACTTGCTACGTGGGTGTATGTCTAGAA; value = 7280 a.u.
Oligonucleotide = CCGGTTGACGGGGTTCGCGTGATTGTGCGATTCGTT; value = 5720 a.u.

Mixed results
Molecule = PhoQ, residues 284 288 289 292 302 303 AGHLVA; target = PhoP, residues 12 14 15 18 19 IQFRS (Escherichia coli, UniProt P23836); test = Sort-seq, measured: YFP reporter; system = E. coli; setting = PhoQ-PhoP variant library, together with: 10 µM Mg2+; how to read = baseline: high Mg2+ state, higher = stronger signaling; measurement = fold induction; value = 13.7

Some of these lines once more (sample 2):
Variant = TRARKRLELGNLG [P1T]; value = 0.0661
Variant = PRARKRLHLGNLG [E8H]; value = 0.148
Variant = PRARKRLELGNGG [L12G]; value = 0.21
Variant = PFARKRLELGNLG [R2F]; value = -0.178
Variant = PRARKRLMLGNLG [E8M]; value = 0.583
Variant = PRARKRLELGWLG [N11W]; value = 0.327
Variant = PRARRRLEFGNLG [K5R L9F]; value = 0.554
Variant = WRARKRLELGNLG [P1W]; value = 0.666
Variant = PRLRKRLELGNLG [A3L]; value = 0.12
Variant = PRARTRLELGNLG [K5T]; value = 0.215
Variant = PRARKRLELYNLG [G10Y]; value = 1.68
Variant = PRADKRLELGNLG [R4D]; value = 0.0258
Variant = PRARKRAELGNLG [L7A]; value = 0.366
Variant = PRARKVLELGNLG [R6V]; value = 0.12
Variant = PRARKYLELGNLG [R6Y]; value = 0.745
Variant = RRARKRLELGNLG [P1R]; value = 0.763
